Experimental data pooled from the literature.
A part holds a random share of what one study measured.

Set 1 — technique: EMSA with sequencing; form: double-stranded DNA, one strand shown; matrix: in vitro; concentration: 10 and 20 nM; reference: negative control set to 0; reading: higher = stronger binding; measurement: normalised bound fraction
Target: Hepatocyte nuclear factor 3-alpha (Foxa1, Mus musculus, UniProt P35582, residues 1-468, full length assumed)
Setting: whole designed probe, mean of two concentrations, ends assumed
Shared flanks, not repeated: GTGAGCGGTGCCCATTGATGGGGAAC … TTTCACTGGGATCGTGGGGAC
Construct (chain): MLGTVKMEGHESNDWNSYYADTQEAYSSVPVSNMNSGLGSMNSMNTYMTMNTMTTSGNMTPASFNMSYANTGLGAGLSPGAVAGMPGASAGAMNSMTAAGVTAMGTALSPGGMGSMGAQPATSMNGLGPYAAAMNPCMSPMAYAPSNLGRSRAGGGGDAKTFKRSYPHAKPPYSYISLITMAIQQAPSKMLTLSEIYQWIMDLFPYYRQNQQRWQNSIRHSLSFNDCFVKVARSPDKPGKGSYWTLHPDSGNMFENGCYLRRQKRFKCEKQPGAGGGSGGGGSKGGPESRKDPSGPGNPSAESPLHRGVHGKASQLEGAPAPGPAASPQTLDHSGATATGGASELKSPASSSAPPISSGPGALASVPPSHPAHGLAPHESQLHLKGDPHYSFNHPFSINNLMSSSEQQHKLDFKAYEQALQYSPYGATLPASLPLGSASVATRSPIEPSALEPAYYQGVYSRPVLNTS
AATGTGTGTACTTACTAGACTACAGTATAGTGTAAATATAACTTAAGTATGTACTGGAAAACCAAAACATTCATGCGACTTGTTTTATTGCAGTATTTACTTTATTAGGTGATCTGGAACAGAACCCACAGTATCTTCAAGGTATGTGTATACTTCTCTAAATCAAATTTAATCTGATCCAAGCCTTCATCTC: 0.452 ratio
AATCTTCATGGAAAACTCTAAGGCAGATGGGAAAAAGAGAACTTGTTGATATTGGCCCTTAGCCAAGGGCAGAGGGTGATATAACAACAACTGATGTTTGCATAACTTCACCTCCTGGACCCTGGGGTGCTTGCAAACATCCATTCATTCATCCTGGTTCACTCATGTGAAATATGTAGGTGGTGTGTTTTAA: 0.333 ratio
ATCTTCCCCCTCTTCCTTGCCCCACCAGCTCACCTTCCCGGGTTATTTGCAGATAGGAAAATAAATAAAGCCGGCATTCGTTAACCCTCTTCACGCGCATACTGCTGTTTGCTCTGGATCTAACATGGTCCTTTGGCGACGCCAGGCTCCGGGAGAGCAAAGCACCGTGTCAGGGCCATGATCCGGGCTCGCC: 0.345 ratio
CCTAGGACCATCTTCTACTTATGAGAGTGAACTTCACTGTATGTCACCAATTCCGTACCTTGTCTATTGTTTAATAGTCGAGATACTGTCAAAGTAATCTAATGCTGCCACCTTGTGGACTGAAGGGTATGGTCTTAACTCCAAATAAGCAAAGGAAGAAAAATACGTTTCTGGTTCGGCCTTTTCTCTCAGA: 0.0535 ratio
TGGTTTTAAAGACTAACAGGATAATGGCGTTTCTTGTTTAGCGGCATAAATTGTGAATGTGTTCCATTAAATTTCCATATGGCATCATGACAATGTAAACACAGACCATCAAGAAGGTCCATAGACTGGCCACTGAGAGAACTCTGGGGGCCCATTGTGATGCTCTCTGGCTAGTCCATCGGGGTCTACATGA: 0.4 ratio
CACATGTCAGTAATAGTGCTGTATTACTGACCTAGAAATTTAATTGTTCCGTGCTCTTAAGGTTTCAGTATTAAATGTGGAAATTATTTAAGAGCAATCTAATTGATATTACTGCAGCTTCATAAAGAAGAATATCAAACTGTGGTCTCTGTTTTTTGTCTTTCAAAGCAAGAAGTGGTGGAGAAATATGAAA: 0.125 ratio
AAATTGTATGCATTTCAAGCCCTACAAAACCTGATTCCAGGAGTTGTACCATTTATCTGTGGTCATGAATTTTGTAAACAAAGCTAAGGAAAAGTCAACAGTGATTCAGGGCAGATTCGTGGCTACATGACTTCCTCCTGGGCTGGCCTGGCTGGACTGAGTGTTGAGTGGGGGTGGGTCAACACTACTCCCT: 0.409 ratio
TTAAGTATGTTCCACAAGGAATAGTAAGTGATGGCATTCACTGAAATAGGAACTTTATCTAAATGTTTCCATGCATCCTTATTGTTATAATGAGTAATTTATAACAGTGGCCATATTAAAAATAGAATTACCCTTTTTGAATTAAAATTATGTATTTGAATTAGAAAAAAAGCATTTGAAACATGTATTTTTA: 0.0702 ratio

Set 2 — technique: RNA Bind-n-Seq; form: RNA; matrix: in vitro; concentration: 365 nM; reference: no-protein control; reading: higher = stronger binding; measurement: RBNS enrichment (R)
Target: RNA binding protein fox-1 homolog 2, RRM domain, GST-SBP tag (RBFOX2, Homo sapiens, UniProt O43251-10, residues 100-194)
Setting: natural RNA segment, single round, ends assumed
Shared flanks, not repeated: GGGAGUUCUACAGUCCGACGAUC … UGGAAUUCUCGGGUGCCAA
Residues (chain): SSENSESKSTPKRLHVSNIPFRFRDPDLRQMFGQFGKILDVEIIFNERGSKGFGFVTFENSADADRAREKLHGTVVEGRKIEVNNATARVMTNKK
UUUUCUUUUCUAAUGUAGCUUUCCCUGUUGAGGCUAUUGUUUCUUCUUAAUUUAUAUUAUAUUUUAAACAACAUAGUAUAUAGCACAGGAAUUUGCAGAAGCCAUUUAAG: 0.593
CUGUGGUUGACUGAACUGCUGUUGCUGUCCACAUUCCACCCUGACCCAUUCCCUGCUUGCGCCUAGGGUGUUUUCCAGAUAGCCCAGAGUUCCAGCUUUGACAGCCUGAU: 0.637
AAAUCACUGUAAUUAAAAUUGGUGUUAAAUCCUUUGGGUUUUCCACUGCCUUAAAAUGAUACUUAUUUCCUUAAAAAAGAAAAUAAAAUAAGAGAUAUCAGUCAGAAUUG: 0.326
UAUCCACUGCCCUAAAGAUUUAGACAUCCAUCACAGACUCUGCAGUGGUGUUUCUACUCCAGUGAGGUACUUUCUACCAUGGUGUGCCUUUUGCUGUGAGUGACUUAACA: 0.334
GACAGACAAGUAACCCCCUCAUGGGGGAUGGGGACCUACCUGGCUCCUCAGCCAGCACCCAGCUUAACCCCUGCCAUCCCAUGCUGGGCCCUCCAGGCCAAGAGUCUCAG: 0.236
CUUAUCAGCUUCCUGUUUCUUCCCAUACUUGCAUACACCACUGCAAAAUGUCUUAAUGCAAAUUUUGUAUUUCUUACAGGCCUACAGAAAUUGAAAAUGACCAAAAUCAG: 0.506
GAAGUGGCUCAACAGGAGGAGCCUGAGUUGUGGGGUCUAUGGAUGGCAACCAGCUGAUUCUGUACAGGGUACACUUGACUGUGGGUAUGCAGGUGGCAGCUGCAGCCCUC: 1.36
CCUAAGGCCCUGCUGUCUGCCGAGGAGCGCCAAGAAGAUGUCACUUGUUUACACACGAACUGCCACAUCCCCAAGCUCCGUUCUUGCCCCUCGUGUCCUAGGCCCAACCC: 1.55
UUUGGUUUCUGGCUUUUUGUUUUGUUUUGUGGACCCGCCUGAGCACCAUUGACUGCCUGCUGUUCCGUUUCUCCCUAUGCAAACAAACAAAAACAGUGAGGGGGUCCAUA: 2.25
AUUUUUUUGGUUAAGACUUUUUCAUUGAUCUGAAUUGCUUAAAUUGCAUAUAUUGUAAAAUAGGAUCAGAUGUAUAUUUUAAACUAAUUUCAAUGGAUUUUCCUCUUGAA: 0.726
CCUUUCCCAGCUUCAGAUCUUGGGGAGAUCCAUCCAAGGGGUUCAGCCCUCUCCUGCCUCCAUGCCUUGGGUCCCUGAAGAGCUUAGAACCCAAAGCUAGGGCCACCCCU: 0.92
GCUAUGGAAGAGUUUUGUGUUUUGUUUUUUGUUUUGUUUUUUUUUUUAAUUUAUUGUAGAUGUAAACAGAAUUUUAAAAAUAAAAUAUAAACAUCACUGCACUGUGACUG: 0.948

Set 3 — technique: protein-binding microarray; form: double-stranded DNA, one strand shown; matrix: in vitro; concentration: 2540 nM top; setting: 60-bp whole probe; together with: salmon DNA 0.4 mg/ml; reference: random background probes; reading: higher = stronger binding; measurement: fitted relative affinity; shared flanks, not repeated: GCCTAGCAC … GTCTTGATTCGCTTGACGCTGCTG
Target: Interferon regulatory factor 3, full length, phosphomimetic (IRF3, Homo sapiens, UniProt Q14653, residues 1-427, S386D/S396D/S398D/S402D/T404D/S405D)
Target sequence (chain): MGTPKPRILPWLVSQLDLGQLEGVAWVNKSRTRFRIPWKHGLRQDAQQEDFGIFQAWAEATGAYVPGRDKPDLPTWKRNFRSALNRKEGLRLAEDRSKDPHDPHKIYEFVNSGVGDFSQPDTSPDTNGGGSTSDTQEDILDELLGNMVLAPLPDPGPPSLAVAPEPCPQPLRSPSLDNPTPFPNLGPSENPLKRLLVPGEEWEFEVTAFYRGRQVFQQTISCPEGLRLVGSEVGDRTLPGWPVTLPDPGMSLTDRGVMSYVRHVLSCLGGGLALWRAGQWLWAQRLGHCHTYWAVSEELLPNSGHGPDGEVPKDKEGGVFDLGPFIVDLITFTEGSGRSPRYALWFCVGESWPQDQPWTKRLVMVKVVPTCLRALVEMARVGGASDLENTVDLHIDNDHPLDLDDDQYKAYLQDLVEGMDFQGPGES
TGGGTATTTTTTCTGAACCAGTGCTAG: 1.14 z-score
GACGGTTTAGACACTGGGGACGTGCTA: 0.165 z-score
TTAGGTTCCGGTTTGGGTTAGTGCTAG: 3.72 z-score
TTAGATTTCCGACTGGATTAGTGCTAG: 1.43 z-score
TCAAGTTTCTCCTTTGTACTGTGCTAG: 1.44 z-score
TTAGGTAGCGGGACTGGGTTAGTGCTA: -0.747 z-score
GATGGCAGTGGAAATTTTACGTGCTAG: -0.84 z-score
TTAGGACTGGGTCTGGGTTAGTGCTAG: -0.767 z-score
ACATGCTTCGAGATCTCCGAGTGCTAG: -0.234 z-score
GACGAACGGGGGTATCGAGACGTGCTA: -0.106 z-score
GACGGTATCCGTATCCTGACGTGCTAG: 3.81 z-score
GAGGATTTCAGACTGGAGACGTGCTAG: 0.007 z-score
TTAGGGTTCGACTTTCGGTTAGTGCTA: 1.33 z-score
TTGGATCTCAGACTGGATTAGTGCTAG: -0.31 z-score
TTAGATTTCGACTTTCGGTTAGTGCTA: 2.41 z-score
TACTTTCTATGTCTGTTTTTGTGCTAG: 2.36 z-score
GACGATCTCATACTGGAGACGTGCTAG: 0.565 z-score
TTAGGACTGGGGACTGGGTCAGTGCTA: -1.04 z-score
TTAGGTATCCTACTGCTCTAGTGCTAG: 2.51 z-score
TGGGGGGATCAGGGAAACAGGTGCTAG: 0.595 z-score
TTAGGTTCCCTTTTCGTTTAGTGCTAG: 7.29 z-score
GACGAGCTCAGTTTCGAGACGTGCTAG: 2.14 z-score
GACGGTCTCGGTATCGAGACGTGCTAG: 1.47 z-score
GACGATTTCGAGTTTCGAGACGTGCTA: 2.43 z-score
CTCACCGCTGGAGTTCTGCGGTGCTAG: -0.596 z-score

Set 4 — technique: protein binding microarray; form: double-stranded DNA, one strand shown; matrix: in vitro; concentration: not given; reference: not given; reading: higher = stronger binding; measurement: E-score
Target: Histone acetyltransferase KAT6A, both winged helices, GST fusion (KAT6A, Homo sapiens, UniProt Q92794, residues 1-181)
Setting: 8-mer, flanks averaged, mean of 2 arrays, mostly near background
Target sequence (chain): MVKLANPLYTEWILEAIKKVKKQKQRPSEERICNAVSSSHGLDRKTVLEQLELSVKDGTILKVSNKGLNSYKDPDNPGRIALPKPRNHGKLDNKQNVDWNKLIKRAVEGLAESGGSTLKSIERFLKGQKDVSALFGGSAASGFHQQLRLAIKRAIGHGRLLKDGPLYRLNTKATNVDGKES
ACATTAAG: -0.121
AACGGGGG: -0.0704
GCTGCGCC: 0.0674
AGAGTGAT: -0.223
CTTGACTA: -0.133
ATGAATTG: 0.0714
CTGGTCGC: 0.107
ATGCAACA: -0.28
GTCACAAC: 0.0573
AGACTTAG: -0.136
AAGTCCCT: -0.168
ATGAGAGG: -0.282
GCTAGGTA: -0.105
CACACCCA: -0.0638
CGGACTTA: 0.0856
ATCCTCCA: -0.207
GTGTCGGA: 0.0735
CAGCGGCG: 0.299
ACTTTCGC: 0.0791
GCACGGCA: 0.232
ACATACCT: -0.197
TACTTTGA: -0.118
ATTTCGGA: 0.0892
CACACCAC: -0.136
GAAACCAC: -0.0912

Excerpt of the above (set 2):
UUUUCUUUUCUAAUGUAGCUUUCCCUGUUGAGGCUAUUGUUUCUUCUUAAUUUAUAUUAUAUUUUAAACAACAUAGUAUAUAGCACAGGAAUUUGCAGAAGCCAUUUAAG: 0.593
GACAGACAAGUAACCCCCUCAUGGGGGAUGGGGACCUACCUGGCUCCUCAGCCAGCACCCAGCUUAACCCCUGCCAUCCCAUGCUGGGCCCUCCAGGCCAAGAGUCUCAG: 0.236
UAUCCACUGCCCUAAAGAUUUAGACAUCCAUCACAGACUCUGCAGUGGUGUUUCUACUCCAGUGAGGUACUUUCUACCAUGGUGUGCCUUUUGCUGUGAGUGACUUAACA: 0.334
CCUUUCCCAGCUUCAGAUCUUGGGGAGAUCCAUCCAAGGGGUUCAGCCCUCUCCUGCCUCCAUGCCUUGGGUCCCUGAAGAGCUUAGAACCCAAAGCUAGGGCCACCCCU: 0.92
CCUAAGGCCCUGCUGUCUGCCGAGGAGCGCCAAGAAGAUGUCACUUGUUUACACACGAACUGCCACAUCCCCAAGCUCCGUUCUUGCCCCUCGUGUCCUAGGCCCAACCC: 1.55
